# Experimental data from different studies.
# Protocols differ between the studies behind these lines. Several values in a cell are separate wells, animals, samples, runs or records.
# Target: Tyrosine-protein kinase BTK (BTK, Homo sapiens, UniProt Q06187)
# UniProt Q06187, sequence (whole entry, looked up): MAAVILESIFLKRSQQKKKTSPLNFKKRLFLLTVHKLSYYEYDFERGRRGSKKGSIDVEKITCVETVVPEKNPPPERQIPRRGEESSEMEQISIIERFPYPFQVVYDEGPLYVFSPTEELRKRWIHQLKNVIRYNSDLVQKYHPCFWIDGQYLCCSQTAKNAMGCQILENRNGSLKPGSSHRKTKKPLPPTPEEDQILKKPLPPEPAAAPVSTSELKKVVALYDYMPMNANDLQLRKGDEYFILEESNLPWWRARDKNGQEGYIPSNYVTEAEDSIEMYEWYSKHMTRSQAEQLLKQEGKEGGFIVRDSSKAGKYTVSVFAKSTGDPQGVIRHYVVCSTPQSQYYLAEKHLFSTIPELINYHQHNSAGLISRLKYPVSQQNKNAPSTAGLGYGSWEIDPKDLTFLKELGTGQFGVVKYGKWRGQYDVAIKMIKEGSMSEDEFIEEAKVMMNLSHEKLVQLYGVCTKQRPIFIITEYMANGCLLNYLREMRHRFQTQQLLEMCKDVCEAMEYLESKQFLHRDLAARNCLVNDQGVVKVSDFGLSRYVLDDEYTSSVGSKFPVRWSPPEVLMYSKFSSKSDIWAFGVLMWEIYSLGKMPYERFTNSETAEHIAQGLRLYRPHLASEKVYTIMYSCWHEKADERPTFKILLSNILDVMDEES
Compound,test,conditions,scale,quantity,result
O=C=[N][Ru-4]123([n]4c5ccc(O)cc5c5c6c(c7cc(F)c[n+]1c7c54)C(=O)NC6=O)[S+]1CC[S+]2CC[S+]3CC1 (stereo not shown),enzyme activity,"100 nM, human enzyme, together with: 10 µM ATP",baseline: untreated,remaining activity,99%
CNC(=O)C1CCN(c2cc(C)c(F)cc2NC(=O)c2ccc(-c3cc(O)ccc3C)c(C)c2)CC1,"binding, competition with immobilised ligand",1 µM,,remaining binding,93%
C=C1CCCCCCCCCC(CO)C1=O (stereo not shown),"cell-free assay, competition with immobilised ligand",10 µM,,remaining binding,91%
CNS(=O)(=O)Nc1nccc(Cc2c(C)c3ccc(Oc4ncccc4F)cc3oc2=O)c1F,"binding, competition with immobilised ligand",10 µM,,remaining binding,100%
CCn1cc(C(=O)O)c(=O)c2c(N)c(F)c(NC3CCCCC3)cc21,kinase activity,"0.1 µM, together with: ATP at Km",,inhibition,-12.3%
[2H]c1cc(C)c(NC(=O)c2cnc(Nc3cc(N4CC[C@H](N)C4)nc(C)n3)s2)c(Cl)c1,"enzyme activity, inhibitor, mobility shift",1 nM,,inhibition,54%
Nc1nc(Nc2ccccc2)sc1C(=O)c1ccccc1,"enzyme activity, inhibitor",10 µM,,remaining activity,60%
Cc1cccc(-c2ccc3nc(NC(=O)C4CCOCC4)nn3c2)c1,"enzyme activity, Dundee kinase panel",10 µM,,remaining activity,59%
O=c1c(-c2ccc(Cl)c(CN3CCOCC3)c2)coc2cc(O)ccc12,"enzyme activity, inhibitor",1 µM,,remaining activity,96%
Cc1ccc(-c2c(/C=C(\C#N)C(=O)NC(C)C)n(CCCO)c3ncnc(N)c23)cc1,"cell-free assay, competition with immobilised ligand",1 µM,,remaining binding,95%
Cc1cnc2nc1Nc1cccc(c1)COC/C=C/COCc1cc(ccc1OCCN1CCOCC1)N2,,concentration not given,,percent of control,50%
Cc1cccc(O[C@H]2CCC[C@@H](C(C)CNCc3ccncc3)C2)c1 (relative stereo),"kinase activity, kinome panel screening",1 µM,,inhibition,0%
CC(=O)N1c2ccc(-c3ccc(CNC(=O)c4cn5cc(-c6cnc(N)nc6)nc(N6CCOCC6)c5n4)cc3)cc2CC[C@@H]1C,KINOMEscan,10 µM,,remaining binding,69%
COc1ccc(NC(=O)Nc2ccc3c(c2)C(=O)N(C(C)CO)CC(C)C(CN(C)Cc2ccc4c(c2)OCO4)O3)cc1 (stereo not shown),"binding, competition with immobilised ligand",10 µM,,remaining binding,94%
Cc1cccc(-c2ccc3nc(NC(=O)C4CCCCC4)nn3c2)c1,"enzyme activity, Dundee kinase panel",10 µM,,remaining activity,71%
COc1cc(Nc2nccc(-c3cnn4nc(OC)ccc34)n2)cc(C(F)(F)F)c1,"binding, competition with immobilised ligand",1 µM,,remaining binding,100%
NC(=O)C[C@H]1CCc2sc3ncnc(O[C@H]4CC[C@H](N5CCOCC5)CC4)c3c21,"enzyme activity, inhibitor",10 µM,,inhibition,8%
CN1CCN(c2ccc(Nc3ncc(Cl)c(Nc4ccccc4P(C)(C)=O)n3)cc2Br)CC1,"enzyme activity, inhibitor",0.1 µM,,inhibition,0%
C=CC(=O)N1CCc2ccc(-n3c(=O)ccc4cnc5ccc(-c6cnn(C)c6)cc5c43)cc21,KINOMEscan,1 µM,baseline: DMSO control,remaining binding,5.1%
CN1CCN(Cc2ccc(NC(=O)c3cccc(C#Cc4cnc(N)c5ncccc45)c3)cc2C(F)(F)F)CC1,"cell-free assay, competition with immobilised ligand",50 nM,,remaining binding,61%
C=CC(=O)Nc1cccc(-c2cnc3[nH]cc(C(=O)NC(C)(C)C)c3n2)c1,kinase activity,0.1 µM,,inhibition,28% and 31%
Cc1nc2c(F)cc(-c3nc(Nc4ccc(CNC(=O)CCCCCCC(=O)NO)cc4)ncc3F)cc2n1C(C)C,"enzyme activity, inhibitor",1 µM,,inhibition,75%
C[C@H]1CN(C(=O)c2cn(-c3ccnc(N)n3)c3cc(C#CC4(O)CCCCC4)ccc23)CCN1,"enzyme activity, inhibitor, FRET",1 µM,,inhibition,3%
CC1CCN(c2ccc(-c3n[nH]c(=O)c4cccnc34)cc2)CC1,"cell-free assay, competition with immobilised ligand",10 µM,,remaining binding,5.7%
COc1c(OCCCN2CCOCC2)ccc2c1N=C(NC(=O)c1cnc(N)nc1)N1CCN=C21,"kinase activity, inhibitor",1 µM,baseline: untreated control,remaining activity,107%

# A few entries again:
Compound,test,conditions,scale,quantity,result
Cc1cccc(-c2ccc3nc(NC(=O)C4CCOCC4)nn3c2)c1,"enzyme activity, Dundee kinase panel",10 µM,,remaining activity,59%
O=c1c(-c2ccc(Cl)c(CN3CCOCC3)c2)coc2cc(O)ccc12,"enzyme activity, inhibitor",1 µM,,remaining activity,96%
Cc1ccc(-c2c(/C=C(\C#N)C(=O)NC(C)C)n(CCCO)c3ncnc(N)c23)cc1,"cell-free assay, competition with immobilised ligand",1 µM,,remaining binding,95%
